Measurements pooled from the literature.
Lines come from different studies, so protocols differ. Numbers after ± are the reported error. Converted amounts (≈) assume the structure as drawn.

Amino acid sequences for entries named in this document (tags omitted).
UniProt Q9UM73, whole entry, looked up: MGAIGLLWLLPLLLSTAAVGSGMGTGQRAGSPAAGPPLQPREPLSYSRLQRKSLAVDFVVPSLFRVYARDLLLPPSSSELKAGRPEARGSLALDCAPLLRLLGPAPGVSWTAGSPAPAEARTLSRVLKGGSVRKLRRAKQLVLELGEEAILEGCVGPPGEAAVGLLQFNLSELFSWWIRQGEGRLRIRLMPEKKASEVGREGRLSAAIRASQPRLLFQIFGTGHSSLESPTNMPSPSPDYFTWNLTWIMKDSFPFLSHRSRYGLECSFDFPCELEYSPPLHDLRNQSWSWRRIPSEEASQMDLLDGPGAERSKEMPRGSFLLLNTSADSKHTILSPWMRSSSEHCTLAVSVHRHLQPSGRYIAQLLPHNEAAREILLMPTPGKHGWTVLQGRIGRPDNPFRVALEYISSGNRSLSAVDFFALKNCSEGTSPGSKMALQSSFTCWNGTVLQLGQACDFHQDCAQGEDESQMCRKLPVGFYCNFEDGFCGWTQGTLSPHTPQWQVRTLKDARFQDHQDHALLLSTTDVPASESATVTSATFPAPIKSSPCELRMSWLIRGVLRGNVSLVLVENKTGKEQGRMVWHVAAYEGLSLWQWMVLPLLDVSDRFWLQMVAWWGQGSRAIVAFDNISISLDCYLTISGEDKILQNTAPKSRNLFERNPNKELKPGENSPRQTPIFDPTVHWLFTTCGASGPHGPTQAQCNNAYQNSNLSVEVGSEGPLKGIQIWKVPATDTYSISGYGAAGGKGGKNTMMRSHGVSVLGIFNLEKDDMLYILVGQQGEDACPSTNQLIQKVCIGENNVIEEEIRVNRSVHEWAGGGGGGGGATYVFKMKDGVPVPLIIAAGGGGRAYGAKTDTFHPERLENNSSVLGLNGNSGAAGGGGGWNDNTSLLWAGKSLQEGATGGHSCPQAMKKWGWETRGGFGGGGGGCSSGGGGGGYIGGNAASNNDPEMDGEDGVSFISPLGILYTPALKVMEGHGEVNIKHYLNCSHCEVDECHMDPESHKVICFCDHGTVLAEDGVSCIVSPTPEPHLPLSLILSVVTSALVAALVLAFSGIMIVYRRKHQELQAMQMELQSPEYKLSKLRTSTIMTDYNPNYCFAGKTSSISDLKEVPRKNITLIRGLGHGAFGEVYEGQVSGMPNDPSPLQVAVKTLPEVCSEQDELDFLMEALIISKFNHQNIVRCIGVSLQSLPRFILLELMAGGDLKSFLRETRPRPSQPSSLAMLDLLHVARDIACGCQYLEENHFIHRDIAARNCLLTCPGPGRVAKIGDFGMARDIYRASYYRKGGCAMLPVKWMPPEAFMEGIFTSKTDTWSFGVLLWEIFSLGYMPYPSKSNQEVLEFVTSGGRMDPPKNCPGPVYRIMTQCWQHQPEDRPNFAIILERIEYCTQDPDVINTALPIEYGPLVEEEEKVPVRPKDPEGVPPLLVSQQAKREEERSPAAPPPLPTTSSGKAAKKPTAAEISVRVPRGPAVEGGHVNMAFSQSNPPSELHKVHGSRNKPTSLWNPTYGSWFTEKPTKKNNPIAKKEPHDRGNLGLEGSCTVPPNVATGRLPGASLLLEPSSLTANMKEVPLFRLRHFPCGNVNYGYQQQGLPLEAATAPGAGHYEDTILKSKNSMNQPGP

The MIC90 of `O=c1ccc2nc3ccc(OCc4ccc([N+](=O)[O-])cc4)cc3oc-2c1` is reported as greater than 256 µM (Mycobacterium tuberculosis; mc2 6206 clofazimine-resistant fbiC mutant; 7 days).
The EC50 of `O=C(N/N=C/c1cc([N+](=O)[O-])ccc1O)c1ccc(O)cc1O` is reported as less than 10 µM (PHGDH-amplified breast cancer; cell viability, MTT; serine-replete medium).
`CCN(CC)C(=O)Oc1ccc(C(=O)Nc2cccc3cc[nH]c23)cc1` — result for “weighted decay time constant”: 101 ± 14 ms (NMDA receptor EPSC, inhibitor, whole-cell patch clamp; CA1 interneurons, mouse, hippocampal slices; 10 µM).
For `C[C@H]1COc2c(N3CCN(C)CC3)c(F)cc3c(=O)c(C(=O)O)cn1c23`, “concentration of maximal DNA cleavage” read 300 µM (Staphylococcus aureus topoisomerase IV GrlA S81F).
`CC1CCC2(CC1)OOCN(CCCCCCCCCCN1COOC3(CCC(C)CC3)OOC3(CCC(C)CC3)OOC1)COOC1(CCC(C)CC1)OO2` (stereo not drawn) gave an IC50 of 2.98 ± 0.17 µM (U-937; cytotoxicity, 7-AAD flow cytometry).
`CCCCOc1ccc2nc3ccc(=O)cc-3oc2c1` has an MIC90 of 7 µM (≈ 1.89 µg/mL) (Mycobacterium tuberculosis; mc2 6206 bedaquiline-resistant MmpL5 regulator mutant; 7 days).
With `C(CCCCCN1COOC2(CCCC2)OOC2(CCCC2)OOC1)CCCCN1COOC2(CCCC2)OOC2(CCCC2)OOC1` the IC50 was 3.44 ± 0.17 µM (K562; cytotoxicity, 7-AAD flow cytometry).
With `COc1ccc(Nc2cc(C)c3cc(NC(=O)c4ccc(N(C)C)cc4)ccc3n2)cc1` the IC50 was 1 to 10 µM (dengue virus 4; viral replication, plaque reduction; BHK-21, TVP360).
With `O=C(Cn1c(-c2ccccn2)nc2ccccc21)Nc1ccc2ccccc2c1` the IC50 was greater than 10 µM (IMPDH (human); enzyme activity, inhibitor).
The MIC of `CC(C)Cc1nnc2c(C(=O)NC3c4ccccc4-c4ccccc43)cccn12` is reported as 8 µg/mL (≈ 20.9 µM) (Escherichia coli; broth microdilution; D21f2tolC rpoB D516V).
With `COc1ccc2nc3ccc(=O)cc-3oc2c1` the MIC90 was 6.6 µM (≈ 1.5 µg/mL) (Mycobacterium tuberculosis; mc2 6206 bedaquiline-resistant MmpL5 regulator mutant; 7 days).
For `CCOC(=O)OCOc1c(-c2ccc(Oc3ccc(OC(F)(F)F)cc3)cc2)c(C)nc2cc(OC)c(Cl)cc12`, “single-dose curative dose” read 3 mg/kg/day (Plasmodium yoelii; mouse; oral, 30 days without recrudescence, PEG-400 vehicle).
The ED50 of `CC#C/C(=N\OC[C@H]1COCCN1)c1ccc2ncnc(Nc3ccc(OCc4cccc(F)c4)c(Cl)c3)c2c1` is reported as less than 25 mg/kg (tumour growth; HT115, SCID mouse subcutaneous xenograft; oral, 21 days daily).
`CCC(C)C1NC(=O)/C(=C(/C)O)C1=O` (stereo not drawn) gave a Vmax of 83.8 nmol Pi/mg/min (plasma membrane H+-ATPase (Spinacia oleracea); ATP hydrolysis; plasma membrane fraction; 2.5 µM).
The IC50 of `Cc1cc(N(CCCl)CCCl)ccc1C=O` is reported as 1.3 µg/mL (CAKI-1; cell growth, inhibitor, MTT).
For `CCN1CCN(Cc2ccc(NC(=O)c3ccc(C)c(/C=C/c4cnc5[nH]ccc5c4OC)c3)cc2C(F)(F)F)CC1`, “log2 fold change” read 0.52 (ALK (Homo sapiens, UniProt Q9UM73); kinase-CDC37 interaction, inhibitor; human cells; 5 µM; baseline: vehicle).
The MIC90 of `CC(=O)OCOc1ccc2nc3ccc(=O)cc-3oc2c1` is reported as 21 µM (Mycobacterium tuberculosis; mc2 6206 bedaquiline-resistant MmpL5 regulator mutant; 7 days).
With `C[C@H]1CCCN1Cc1cc2cnc(NC(=O)c3ccc4c(cnn4C)c3)cc2[nH]1` the median survival was 63 days (MV4;11 cells, NSG mouse, disseminated xenograft; oral, 200 mg/kg once daily, 28 days).
`O=C1C=C(NCCc2cc(Br)c(O)c(Br)c2)C(=O)c2ncccc21` has a survival time of no more than 49 days (BALB/c mice, K7M2 lung metastasis; ip, 0.226 mg/kg/day, 5 days per week; up to).
With `C(CCCCCN1COOC2(CCCCCC2)OOC2(CCCCCC2)OOC1)CCCCN1COOC2(CCCCCC2)OOC2(CCCCCC2)OOC1` the IC50 was 1.41 ± 0.13 µM (U-937; cytotoxicity, 7-AAD flow cytometry).
`CC[C@H](C)[C@@H]1NC(=O)[C@H](CCC(=O)O)NC(=O)[C@@H]2CCCN2C(=O)[C@H](Cc2c[nH]cn2)NC(=O)[C@H](CC(=O)O)NC(=O)[C@H](Cc2ccc(O)cc2)NC(=O)[C@H](CC(N)=O)NC(=O)[C@@H]2CSSC[C@@H]3NC(=O)CNC(=O)CNC(=O)CNC(=O)[C@H](C)NC(=O)[C@H](C)NC(=O)CNC(=O)CNC(=O)[C@H](CSSC[C@H](NC3=O)C(=O)N[C@@H](CO)C(=O)N[C@@H](CC(=O)O)C(=O)N3CCC[C@H]3C(=O)N[C@@H](CCCNC(=N)N)C(=O)N2)NC1=O` gave an inhibition of 0% (barium current, inhibitor, electrophysiology; 0.2 µM, Cav2.3c alone without GABAB receptor).
Under MIC90, `O=c1ccc2nc3ccc(OCc4ccc([N+](=O)[O-])s4)cc3oc-2c1` is recorded as “no effect” (Mycobacterium tuberculosis; mc2 6206, ddn mutant, PA-824-resistant).
For `CCCN1CCN(c2ccc3c(c2)C2CC3CCN2C(=O)OCc2ccccc2)CC1` (stereo not drawn), the Ki was greater than 10 µM (GABA-A receptor; radioligand binding).
With `Cc1cc(C(=O)O)ccc1-c1c2ccc(=O)cc-2oc2cc(OCc3ccc([N+](=O)[O-])o3)ccc12` the MIC90 was 242 µM (≈ 114 µg/mL) (Mycobacterium tuberculosis; mc2 6206 clofazimine-resistant fbiC mutant; 7 days).
Under Stat3-EGFR colocalization, `Cc1ccc(S(=O)(=O)N(C)CC(=O)N(Cc2ccc(C3CCCCC3)cc2)c2ccc(C(=O)O)c(O)c2)cc1` is recorded as “inhibited” (STAT3; confocal immunofluorescence; NIH3T3/hEGFR; 50 µM, 30 min pretreatment, with: 1 µg/mL EGF 10 min).
The MIC50 of `CO[C@H]1/C=C/O[C@@]2(C)Oc3c(C)c(O)c4c(O)c(c(/C=N/N5CCN(C)CC5)c(O)c4c3C2=O)NC(=O)/C(C)=C\C=C\[C@H](C)[C@H](O)[C@@H](C)[C@@H](O)[C@@H](C)[C@H](OC(C)=O)[C@@H]1C` is reported as 0.0016 µM (≈ 0.00132 µg/mL) (Mycobacterium bovis; BCG Tac^r10.1, thyA mutant; TA-C-resistant thyA mutant).
For `CCC(C)C(CC)C(N)=O` (stereo not drawn), the ED50 was 37 mg/kg (6 Hz psychomotor seizure test; mouse; intraperitoneal, with: 32 mA).
For `c1ccc(Nc2cccc3ccccc23)cc1`, the Kd was 0.58 ± 0.14 µM (Manis javanica OBP3 G68A; binding, fluorescence binding; with: 1-NPN probe).
The MIC of `O=[N+]([O-])c1ccc(N2CCN(c3ccc([N+](=O)[O-])cc3[N+](=O)[O-])CC2)c([N+](=O)[O-])c1` is reported as 125 µg/mL (≈ 299 µM) (Escherichia coli; ATCC 25922).
`CCCCCCC1c2ccc(O)cc2Oc2cc(O)ccc21` has an MIC of greater than 373 µg/mL (Klebsiella pneumoniae; BARB 105).
For `COc1cc(OC)c2ccccc2c1C=C1C(=O)NC(=S)NC1=O`, the effective concentration was 5 µM (IL-2 secretion, inhibitor, ELISA, refers to: IL-2; activated T cells, mouse; GDM-12 vehicle).
With `COCCOc1ccc2nc3ccc(=O)c(Br)c-3oc2c1` the MIC90 was 35 µM (≈ 12.3 µg/mL) (Mycobacterium tuberculosis; mc2 6206 bedaquiline-resistant MmpL5 regulator mutant; 7 days).
For `CSc1nc(Cl)cc(Sc2nnc(-c3cc(C(F)(F)F)cc(C(F)(F)F)c3)[nH]2)n1`, the MIC was greater than 590 µg/mL (Shigella flexneri; ATCC 12022; no additive).
For `COCCOc1ccc2nc3ccc(=O)cc-3oc2c1`, the MIC90 was 19 µM (≈ 5.15 µg/mL) (Mycobacterium tuberculosis; mc2 6206 clofazimine-resistant fbiC mutant; 7 days).
With `CCc1nc(N)nc(N)c1C#CCc1cc(OC)cc(-c2ccc(C(=O)O)cc2)c1` the MIC was 10 µg/mL (≈ 24.8 µM) (Staphylococcus aureus; MRSA isolate HH 714).
The GI50 of `CCCCCCCCCCCCCC(=S)NCCCC[C@H](NC(=O)OCc1ccccc1)C(=O)Nc1cccc(O)c1` is reported as 6.2 ± 0.2 µM (HCT-116; cell growth).
